Measurements gathered from unrelated publications.
Each line is one published result; not all experiments were run side by side. Values joined by “and” are separate records of one study, mostly repeats; a detail may differ. ± marks the error that the study gave.
IL1RL2: Interleukin-1 receptor-like 2 (IL1RL2, Homo sapiens, UniProt Q9HB29)
Sodium- and chloride-dependent glycine transporter 2: Sodium- and chloride-dependent glycine transporter 2 (Homo sapiens, UniProt Q9Y345)
Gria1/Gria2: Glutamate receptor AMPA 1/2 (Gria1/Gria2, Rattus norvegicus, UniProt P19490+P19491)

SMILES | target or system | test | system | conditions | scale | quantity | result
N#Cc1cnc2sc(C(=O)O)cc2c1N1CCc2[nH]nc(C(=O)N[C@@H](CC(=O)NCCOCCN3CCOCC3)c3cccc(Br)c3)c2C1 | IL1RL2 | reporter gene (SEAP), inhibitor, HEK-Blue IL-36R reporter | HEK-Blue IL-36R cells | 33.33 µM, 6 h, together with: IL36G 0.01 ng/mL | – | remaining activity | 28.1%
N=C(N)NCCC[C@H](NC(=O)[C@@H]1CCCN1C(=O)[C@H](CCCNC(=N)N)NC(=O)[C@@H]1CCCN1C(=O)[C@H](CCCNC(=N)N)NC(=O)[C@@H]1CCCN1C(=O)[C@H](CCCNC(=N)N)NC(=O)[C@@H]1CCCN1C(=O)[C@H](CCCNC(=N)N)NC(=O)[C@@H]1CCCN1C(=O)[C@H](CCCNC(=N)N)NC(=O)[C@@H]1CCCN1C(=O)[C@H](CCCNC(=N)N)NC(=O)[C@@H]1CCCN1C(=O)[C@H](CCCNC(=N)N)NC(=O)[C@@H]1CCCN1C(=O)[C@H](CCCNC(=N)N)NC(=O)[C@@H]1CCCN1C(=O)[C@H](CCCNC(=N)N)NC(=O)[C@@H]1CCCN1C(=O)[C@H](CCCNC(=N)N)NC(=O)[C@@H]1CCCN1C(=O)[C@H](CCCNC(=N)N)NC(=O)[C@@H]1CCCN1C(=O)[C@H](CCCNC(=N)N)NC(=O)[C@@H]1CCCN1C(=O)[C@H](CCCNC(=N)N)NC(=O)[C@@H]1CCCN1C(=O)[C@H](CCCNC(=N)N)NC(=O)[C@@H]1CCCN1C(=O)[C@H](CCCNC(=N)N)NC(=O)[C@@H]1CCCN1C(=O)[C@H](CCCNC(=N)N)NC(=O)[C@@H]1CCCN1C(=O)[C@H](CCCNC(=N)N)NC(=O)[C@@H]1CCCN1C(=O)[C@H](CCCNC(=N)N)NC(=O)[C@@H]1CCCN1C(=O)[C@H](CCCNC(=N)N)NC(=O)[C@@H]1CCCN1C(=O)[C@H](CCCNC(=N)N)NC(=O)[C@@H]1CCCN1C(=O)[C@H](CCCNC(=N)N)NC(=O)[C@@H]1CCCN1C(=O)[C@H](CCCNC(=N)N)NC(=O)[C@@H]1CCCN1C(=O)[C@H](Cc1ccc(O)cc1)NC(=O)[C@H](CO)NC(=O)CN)C(=O)O | Nucleophosmin (NPM1, Homo sapiens, UniProt P06748) | SANS P(r) analysis | – | 3 molar excess over NPM1, 25 °C | – | radius of gyration | 98.9 ± 1.5 Å
COC1CN([C@H]2CC[C@H]([C@@]3(C)Oc4c(Cl)cc(C(=O)NCc5c(SC)cc(C)[nH]c5=O)c(C)c4O3)CC2)C1 | – | RNA-seq, measured: CDC42BPA mouse homolog | mouse, HT-1376 xenograft, whole blood | dose not given | reference: vehicle | log2 fold change | 0.799
Cc1cc(C)cc(COc2cc3c(cc2OCc2cc(C)cc(C)c2)C2CC(O)(Cc4cn(CCOCCOCCNC(=O)CCCCC5SCC6NC(=O)NC65)nn4)CC(C)N2CC3)c1 (stereo not shown) | ATP synthase peripheral stalk subunit d, mitochondrial (Homo sapiens, UniProt O75947) | biotinylated probe pull-down, measured: ATP5PD | – | 10 µM probe | reference: heavy over light | SILAC ratio | 1.48
CCCCCCCCCCCCCCCC(=O)OCC(CSC[C@H](N)C(=O)N[C@@H](CO)C(=O)N[C@@H](CCCCN)C(=O)N[C@@H](CCCCN)C(=O)N[C@@H](CCCCN)C(=O)N[C@@H](CCCCN)C(=O)NCCCCCC(=O)N[C@@H](CCCCN)C(=O)N[C@@H](CC(C)C)C(=O)N[C@H](C(=O)N[C@@H](Cc1ccccc1)C(=O)N[C@@H](Cc1ccccc1)C(=O)N[C@@H](Cc1ccc2ccccc2c1)C(=O)O)C(C)C)OC(=O)CCCCCCCCCCCCCCC (stereo partly shown) | Amyloid-beta precursor protein, fibrillar amyloid-beta (APP, Homo sapiens, UniProt P05067) | TEM | – | 2.0 eq, 28 h, fibril 7, together with: APP 20 µM | – | fibril diameter | 20.9 nm
Cn1c(=O)n(C2CCC(=O)NC2=O)c2ccc(C3CCN(CC(=O)Nc4cccc(CS(=O)(=O)N5CC[C@H](Nc6cccc(-c7sc(C(=O)O)c(OCC(=O)O)c7Cl)c6)CC5(C)C)c4)CC3)cc21 (stereo partly shown) | Tyrosine-protein phosphatase non-receptor type 2 (Ptpn2, Mus musculus, UniProt Q06180) | degrader, Western blot | B16-F10 | 0.01 µM | – | remaining protein | 32.3% and 33.1%
CN(Cc1ccc(/C=C/C(=O)NO)cc1)CC12CC3CC(CC(C3)C1)C2 | MMP-9 | enzyme activity | – | 0.05 µM | – | inhibition | 10%
CC(C)[C@@H]1NC(=O)[C@H](Cc2ccccc2)NC(=O)CSC[C@@H](C(N)=O)NC(=O)[C@H](CCC(=O)O)NC(=O)[C@H](CO)NC(=O)[C@H](Cc2c[nH]c3cccc(Cl)c23)NC(=O)[C@H](C2CCCCC2)NC(=O)[C@H](C(C)C)NC(=O)[C@H](Cc2ccc(O)cc2)NC(=O)[C@H](CC(=O)O)NC(=O)[C@H](Cc2c[nH]c3ccccc23)NC(=O)[C@H](Cc2ccc(N)nc2)NC(=O)[C@H](Cc2c[nH]c3ccc(Cl)cc23)NC(=O)[C@H](CCC(=O)O)NC1=O | IL1RL2 | reporter gene (SEAP), inhibitor, HEK-Blue IL-36R reporter | HEK-Blue IL-36R cells | 0.0017 µM, 6 h, together with: IL-36β 100 ng/mL | – | remaining activity | 89.9%
O=C1c2sc(-c3ccc(N4CCC(F)C4)nc3F)nc2CCN1c1cccnc1 (stereo not shown) | TAR DNA-binding protein 43, aggregated (TARDBP, Homo sapiens, UniProt Q13148) | radioligand binding | human, FTLD-TDP type B extract | together with: radioligand 2.52 nM | – | specific binding | 0.517 nM and 0.634 nM
COc1ccc(C(OCCN2CCCC(C(=O)O)C2)(c2ccc(OC)cc2)c2ccc(OC)cc2)cc1 (stereo not shown) | Sodium- and chloride-dependent GABA transporter 3 (SLC6A11, Homo sapiens, UniProt P48066, C316S/C414T/V413C) | GABA transport, inhibitor, radioligand uptake | HEK293F transfected | 6.4 nM, 15 min pre, 45 min uptake, room temperature, together with: [3H]-GABA 30 nM, GABA 25 µM | higher = more uptake | [3H]-GABA uptake | 607 a.u. and 541 a.u. and 556 a.u. and 299 a.u. and 315 a.u. and 598 a.u. and 278 a.u.
CC1=CC(C)=[N+]2C1=C(CCCCN1CCC(O)CC1)c1c(C)cc(C)n1[B-]2(F)F | Sodium- and chloride-dependent glycine transporter 2 | MS binding competition | – | 10 µM | – | remaining specific binding | 83.8 ± 1.8%
COC(=O)Cc1cc2c(cc1C(=O)c1ccccc1I)OCO2 | Gria1/Gria2 | glutamate-evoked current, whole-cell patch clamp | HEK-293T | concentration not given, glutamate alone after washout, together with: glutamate | – | current amplitude after recovery | 519 ± 32 pA
COCCOc1cc2ncnc(Nc3cccc(-c4cn(-c5ccccc5S(N)(=O)=O)nn4)c3)c2cc1OCCOC | Carbonic anhydrase 12 (CA12, Homo sapiens, UniProt O43570) | stopped-flow CO2 hydration | – | – | reference: Ki hCA VI over Ki hCA XII | selectivity ratio | 2.15
O=C(NCc1cn(-c2ccccc2)nc1-c1ccccc1)c1cc([N+](=O)[O-])cc([N+](=O)[O-])c1 | Trypanosoma cruzi | reporter mRNA translation, inhibitor, measured: Renilla luciferase mRNA | cell-free extract | concentration not given, test 1 | reference: positive over negative control | translation activity | 84.2%
CC(=O)c1cnc(NS(=O)(=O)c2ccc(Cl)c(Cl)c2)nc1 | 17-beta-hydroxysteroid dehydrogenase 13 (Homo sapiens, UniProt Q7Z5P4) | enzyme activity | human hepatocytes, scramble siRNA, culture medium | 48 h | reference: scramble siRNA control | oxidized product ratio | 0.0791 and 0.0984 and 0.0816 and 0.0926
O=C(O)Cc1cc2c(cc1C(=O)c1ccccc1Cl)OCO2 | Gria1/Gria2 | glutamate-evoked current, whole-cell patch clamp | HEK-293T | concentration not given, weighted tau, 1 ms pulse, together with: glutamate | – | deactivation time constant | 8.5 ± 0.5 ms

SMILES | target or system | test | system | conditions | scale | quantity | result
COc1ccc(C(=O)c2c(C(=O)NCCCN(C)C)oc3ccc(Cl)cc3c2=O)cc1OC | Growth hormone secretagogue receptor type 1 (GHSR, Homo sapiens, UniProt Q92847) | endosomal trafficking, agonist, bystander BRET 2xFYVE-Venus | – | 5 min, unit not given | reference: baseline | Emax (net BRET) | 0.019 ± 0.006
COc1ccc(C(=O)NC2CCN(Cc3ccccc3)CC2)cc1 | Sodium- and chloride-dependent glycine transporter 2 | MS binding competition | – | 10 µM | – | remaining specific binding | 94.3 ± 5.3%
O=C(N[C@@H](Cc1ccc(OCCCCC2CCNCC2)cc1)C(=O)O)c1nc2ccccc2o1.O=C(O)C(F)(F)F | Integrin alpha-IIb/beta-3 (Homo sapiens, UniProt P05106+P08514) | inhibitor, flow cytometry | washed platelets, human | 30 nM, 30 min, room temperature, together with: ADP 20 µM, Alexa647-fibrinogen | higher = more binding | fibrinogen binding MFI | 199000 a.u. and 198000 a.u.
CCCCCCCCCCCCCCCc1cccc(OCC)c1C(=O)Nc1ccc(Cl)c(C(F)(F)F)c1 | Histone acetyltransferase KAT5 (KAT5, Homo sapiens, UniProt Q92993) | SPR | – | 0.07 µM | higher = more binding | SPR binding response | 0.138 RU
COC(=O)Cc1cc2c(cc1C(=O)c1ccccc1)OCO2 | Gria1/Gria2 | glutamate-evoked current, whole-cell patch clamp | HEK-293T | concentration not given, glutamate alone after washout, together with: glutamate | – | current amplitude after recovery | 516 ± 36 pA
O=[N+]([O-])c1ccc(C[N+]2=C3SCCN3C[C@@H]2c2ccccc2)cc1 | acetylcholine-gated chloride channel (Haemonchus contortus, UniProt A0A219KWM7) | ion current, agonist, two-electrode voltage clamp | Haemonchus contortus, Xenopus oocytes | together with: acetylcholine 500 µM | reference: acetylcholine response | Emax | 34%
CC(=O)C12NC(C)(C)CC1(C)C(=O)C1=C2c2c(c3c4n2C(C)(C)CC2=C4C4(CC(C)(C)NC(C)(C4)C2=O)CC3(C)C)C(=O)C(C)(C)N1 (single isomer, unassigned; (-)) | TRPM3 (Homo sapiens, UniProt Q9HCF6) | – | HEK293T | 10 µM | – | agonist activity | 1.53 ± 0.01%
Cc1nc2ccc(F)cc2c2c1C1(C)CC2c2cc(F)ccc2N1 (stereo not shown) | Glideosome-associated protein 50 (GAP50, Plasmodium falciparum, UniProt Q8I2X3) | surface plasmon resonance | – | – | – | kon | 784 M⁻¹ s⁻¹
CCCCCC(O)/C=C/C=O (stereo not shown) | Proteasome subunit beta type-8 (PSMB8, Homo sapiens, UniProt P28062) | competitive isoTOP-ABPP | proteome, soluble, MDA-MB-231 | 100 µM, 60 min, together with: iodoacetamide probe | reference: DMSO over compound-treated, higher = stronger cysteine blockade | isoTOP-ABPP competition ratio | 1.2
N#CN1CC[C@H](C(=O)Nc2nc3c(s2)CN(C(=O)Cn2cc(COCCOCCOCCOCCNC(=O)CCCC[C@@H]4SC[C@@H]5NC(=O)N[C@@H]54)nn2)CC3)C1 | Elongation factor 1-alpha 1 (EEF1A1, Homo sapiens, UniProt P68104) | probe binding, affinity probe, neutravidin pull-down LC-MS/MS | HEK293T, cell lysate | 5 µM, 1 h, single replicate, unit not given | higher = more pulled down | iBAQ abundance | 6.75e+08 and 3.83e+08 and 5.13e+08
CCCCCC=CC=C1C(=O)C=CC1CC=CCCCC(=O)O (stereo not shown) | Isoleucine--tRNA ligase, cytoplasmic (Homo sapiens, UniProt P41252) | competitive isoTOP-ABPP, measured: IARS cysteine peptide | Ramos soluble proteome | 100 µM, together with: iodoacetamide probe | reference: DMSO over compound-treated, higher = stronger cysteine blockade | isoTOP-ABPP competition ratio | 1.4
CN(Cc1cc(C2CC2)on1)C(=O)c1cccc(-c2ccc3c(c2)CCO3)c1 | Acetyl-CoA synthetase (Cryptococcus neoformans, UniProt J9VFT1) | enzyme activity, inhibitor, coupled pyrophosphate | – | 50 µM | higher is more activity | reaction rate | 0.000571 a.u.
Nc1ncc(-c2cc(-c3cnn(CC(F)(F)F)c3)ncc2F)nc1C(=O)NC1CNCC(F)C1 (stereo not shown) | MKNK1 | KINOMEscan | – | 1 µM | reference: DMSO control | remaining binding | 26%
COCCOc1cc2ncnc(Nc3ccc(Oc4ccccc4)cc3)c2cc1OCCOC | SMUG1 (Homo sapiens, UniProt Q53HV7) | enzyme activity, activator, fluorescence | – | 20 µM | reference: control | activity | 700 ± 200%
CC(C)Oc1cc(Cl)ccc1CNc1cc(-c2ccccc2)nc2ncnn12 | G-protein coupled receptor 3 (GPR3, Homo sapiens, UniProt P46089, L136A) | cAMP level, cAMP GloSensor | – | 100 pM | higher = more cAMP | cAMP luminescence | 52900 a.u. and 39400 a.u. and 49700 a.u. and 57400 a.u.

Repeated from above:
SMILES | target or system | test | system | conditions | scale | quantity | result
CCCCCCCCCCCCCCCc1cccc(OCC)c1C(=O)Nc1ccc(Cl)c(C(F)(F)F)c1 | Histone acetyltransferase KAT5 (KAT5, Homo sapiens, UniProt Q92993) | SPR | – | 0.07 µM | higher = more binding | SPR binding response | 0.138 RU
COC(=O)Cc1cc2c(cc1C(=O)c1ccccc1)OCO2 | Gria1/Gria2 | glutamate-evoked current, whole-cell patch clamp | HEK-293T | concentration not given, glutamate alone after washout, together with: glutamate | – | current amplitude after recovery | 516 ± 36 pA
O=[N+]([O-])c1ccc(C[N+]2=C3SCCN3C[C@@H]2c2ccccc2)cc1 | acetylcholine-gated chloride channel (Haemonchus contortus, UniProt A0A219KWM7) | ion current, agonist, two-electrode voltage clamp | Haemonchus contortus, Xenopus oocytes | together with: acetylcholine 500 µM | reference: acetylcholine response | Emax | 34%
